{"data": "Measured values gathered from unrelated publications", "note": "Each line is one published result; not all experiments were run side by side."}
{"SMILES": "CC(C)(C)C(=O)Nc1ccc2[nH]c(CN3CCC(N(CCCN4CCOCC4)CC4OC(n5cnc6c(N)ncnc65)C(O)C4O)CC3)nc2c1 (stereo not shown)", "species": "male Sprague-Dawley rat", "medium": "plasma", "route": "intravenous", "dose": "20 mg/kg", "Vd [L/kg]": 14.9}
{"SMILES": "CCC(CC)n1c(Cc2ccco2)nc2cc(C(=O)N[C@@H](CC(=O)O)c3ccccc3)ccc21", "species": "male Sprague-Dawley rat", "medium": "plasma", "route": "intravenous", "dose": "1 mg/kg", "Vd [L/kg]": 8}
{"SMILES": "COC(=O)C1=CNC=C(C(=O)OC)C1c1ccc(F)c(C(F)(F)F)c1", "species": "male Sprague-Dawley rat", "medium": "plasma", "route": "intravenous", "dose": "5 mg/kg", "Vd [L/kg]": 5.21}
{"SMILES": "CCOP(=O)(CC(=O)Nc1ccc(S(=O)(=O)N(CC(N)=O)c2ccc(N(CC(N)=O)S(=O)(=O)c3ccc(OC)cc3)c3ccccc23)cc1)OCC", "species": "male Wistar rat", "medium": "plasma", "route": "intravenous", "dose": "28 mg/kg", "notes": "single dose", "Vd [L/kg]": 2.16}
{"SMILES": "CC1(C)C(NC(=O)C(=NOC2(C(=O)O)CCC2)c2csc(N)n2)C(=O)N1OS(=O)(=O)O (stereo not shown)", "species": "rat", "medium": "plasma", "route": "intravenous", "dose": "10 mg/kg", "notes": "single dose", "Vd [L/kg]": 0.19}
{"SMILES": "COCCN(C)CC(=O)NC(Cc1ccc(-c2ccccc2)cc1)B(O)O (stereo not shown)", "species": "rat", "medium": "plasma", "route": "intravenous", "dose": "1 mg/kg", "Vd [L/kg]": 1.3}
{"SMILES": "COc1cc(OC)c2c(=O)cc(-c3cc(C)c(OCCCN4CCN(C)CC4)c(C)c3)oc2c1", "species": "male Sprague-Dawley rat", "medium": "plasma", "route": "intravenous", "dose": "10 mg/kg", "notes": "single dose", "Vd [L/kg]": 11.4}
{"SMILES": "CCC1(CC)CC(=O)N(C2c3cc(C(=O)NC4c5ccccc5CC4O)ccc3OC2(C)COC)C(=N)N1 (stereo not shown)", "species": "male Wistar rat", "medium": "plasma", "route": "intravenous", "Vd [L/kg]": 9.7}
{"SMILES": "Cc1cc2c(cc1O)C=C1C=CC(=O)C(C)(C)[C@H]1CC2", "species": "male Sprague-Dawley rat", "medium": "plasma", "route": "oral", "dose": "20 mg/kg", "Vd [L/kg]": 4560}
{"SMILES": "C[C@@H](CO)NC(=O)c1cc(-c2ccc(Cl)cc2)nn(-c2cnn(C)c2)c1=O", "species": "male Wistar rat", "medium": "plasma", "route": "intravenous", "Vd [L/kg]": 1.5}
{"SMILES": "Cc1cccc(Cn2ncc3c4cc(F)c(CN(C)C)cc4n(C)c3c2=O)n1", "species": "Sprague-Dawley rat", "medium": "plasma", "route": "intravenous", "dose": "5 mg/kg", "Vd [L/kg]": 2.09}
{"SMILES": "C/C(N)=N/C(=N\\S(=O)(=O)c1ccc(C(F)(F)F)cc1)N1C[C@H](c2ccccc2)C(c2ccc(Cl)cc2)=N1", "species": "male Sprague-Dawley rat", "medium": "plasma", "route": "intravenous", "dose": "2 mg/kg", "Vd [L/kg]": 4.2}
{"SMILES": "OCC1OC(n2cnc3c(NCc4ccc(Br)s4)ncnc32)C(O)C1O (stereo not shown)", "species": "male Sprague-Dawley rat", "medium": "blood", "route": "intravenous", "dose": "6 mg/kg", "Vd [L/kg]": 5.9}
